# Assay results gathered from unrelated publications.
# Every numbered part comes from another study and shows a few of its results, in no order.

# Set 1 — method: protein binding microarray; form: double-stranded DNA, one strand shown; sample: in vitro; concentration: not given; relative to: not given; reading: higher = stronger binding
# Target: Histone acetyltransferase KAT6A, both winged helices, GST fusion (KAT6A, Homo sapiens, UniProt Q92794, residues 1-181)
# Setting: 8-mer, flanks averaged, mean of 2 arrays, mostly near background
# Construct (chain): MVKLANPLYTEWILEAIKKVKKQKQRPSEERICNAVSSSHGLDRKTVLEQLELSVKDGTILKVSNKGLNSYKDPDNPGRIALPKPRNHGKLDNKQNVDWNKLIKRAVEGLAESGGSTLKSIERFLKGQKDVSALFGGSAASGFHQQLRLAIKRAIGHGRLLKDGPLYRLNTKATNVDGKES
Oligonucleotide,E-score
AAGGGGTC,-0.314
GATTCTAA,-0.184
ACTTAGTA,-0.0567
TAATTCTA,-0.116
CATAAGTA,-0.151
ATTGCACG,0.0258
CAGGCTTA,-0.22
CATTGACG,0.0986
GTACGTCA,-0.0782
CGAGTCAC,-0.0128
TGTGAAAA,-0.0496
CGTGCAAG,0.0973
CGGGCTCA,0.124
CGGTCGAC,0.227
AGGCTATC,-0.0452
AATTGTCG,-0.0396
ATACGTAG,-0.0224
GGGGCCAA,-0.0576
AACCTTAG,-0.0801
ATTGGCGG,0.0433
TATAACAA,-0.0855
GCCAGGAC,-0.0396
TAGATTGA,0.0928
CATTACTC,-0.133
ACACTAAG,-0.21

# Set 2 — method: protein-binding microarray; form: double-stranded DNA, one strand shown; sample: in vitro; concentration: not given; reading: higher = stronger binding
# Target: Protein C-ets-1 (ETS1, Homo sapiens, UniProt P14921, residues 1-441, full length assumed)
# Setting: k-mer, scored over probes, only values ≥0.25
# Residues (chain): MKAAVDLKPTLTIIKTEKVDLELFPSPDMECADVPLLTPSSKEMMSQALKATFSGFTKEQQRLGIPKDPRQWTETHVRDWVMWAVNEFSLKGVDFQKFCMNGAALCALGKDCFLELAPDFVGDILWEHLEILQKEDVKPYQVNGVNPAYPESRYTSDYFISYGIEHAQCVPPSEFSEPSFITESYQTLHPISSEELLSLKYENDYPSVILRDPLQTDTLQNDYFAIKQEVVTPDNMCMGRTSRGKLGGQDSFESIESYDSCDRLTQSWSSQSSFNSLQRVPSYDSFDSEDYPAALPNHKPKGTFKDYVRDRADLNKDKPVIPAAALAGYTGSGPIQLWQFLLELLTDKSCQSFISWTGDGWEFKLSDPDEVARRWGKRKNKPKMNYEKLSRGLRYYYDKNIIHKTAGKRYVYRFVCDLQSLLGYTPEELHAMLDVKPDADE
Oligonucleotide,E-score
CCCATCCC,0.275
AAGGAAGG,0.351
AACCGGAG,0.297
ACAGTTCC,0.312
CATCCGGG,0.482
GGAAACTA,0.344
CATATCCG,0.473
CGCCTTCC,0.289
AACCCCGG,0.318
AGTCCGGA,0.4
CCTTTCCG,0.414
ATGAGGAA,0.295
CATCCGGA,0.483
AGCGGATA,0.444
CCTGGAAG,0.374
GGATACCC,0.316
CCGTCCCC,0.285
ATTCTTCC,0.304
GCAGCGGA,0.31
CCGCCCGG,0.372
AGGACGTC,0.281
ATGTTTCC,0.427
CACATCCG,0.487
GCCCCGGA,0.408
CCGCCATA,0.264

# Set 3 — method: RNA Bind-n-Seq; form: RNA; sample: in vitro; concentration: 365 nM; relative to: no-protein control; reading: higher = stronger binding
# Target: RNA binding protein fox-1 homolog 2, RRM domain, GST-SBP tag (RBFOX2, Homo sapiens, UniProt O43251-10, residues 100-194)
# Setting: natural RNA segment, single round, ends assumed
# Construct (chain): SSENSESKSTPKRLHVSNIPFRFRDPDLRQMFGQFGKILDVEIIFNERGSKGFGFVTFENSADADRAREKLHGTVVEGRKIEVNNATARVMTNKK
Oligonucleotide,RBNS enrichment (R)
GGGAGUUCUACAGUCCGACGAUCUCCUAGAAUUCUUACUAGUGAAAUCUUACCCAAGUAAAACAAUUUAUUAUUUUGAAUCCAAAUGAAAGCUAUACUGUUUGCUUUCAAUGGUGGCAAAAACUUGCAAAAAGUGGAAUUCUCGGGUGCCAA,0.562
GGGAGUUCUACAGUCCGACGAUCUGACGGUGUGUGUGAGAGAGUGGUGGGGCGGGGUGAGAAAUUCUCUGUCCUUUUGUCUACACAUGCGUGCUGACCUUACCUGUGAGUCCACUGCCUUCGUGAAGGAUGCUUGGAAUUCUCGGGUGCCAA,0.446
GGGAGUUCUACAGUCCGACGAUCCCGCCUGGAUGGACUGAGGAAUCGUGGGCCAGGCUGCACCUGGGAUUCCUUGCGGAAUUCUGUGGGAGAAAAGAUCCUAUCCCUUCGCAGUUGCUCCGUGGGCUCUCUAGUGGAAUUCUCGGGUGCCAA,0.642
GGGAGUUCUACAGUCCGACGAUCAACAUGGAGGUGAUAUGUUACACAGUAAACACCUGCCAACCCCUGUACUCCCCUUUGCUCCAUCAGUUAUCAGGAAGGAGAACUAAGGAGGGAGGAAGCUUAUUAGGUUCUGGAAUUCUCGGGUGCCAA,0.299
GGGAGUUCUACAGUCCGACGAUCUUUACCAAGCACCACCCUAACCUCUAAAAUCAGAGUUCAGCUGAGCUAUUAGUAGUGGGUGGUCACCAUGACUGCCCAAGCUACAACAGCUGAUCUCUUCCCAGGUCACCUGGAAUUCUCGGGUGCCAA,0.408
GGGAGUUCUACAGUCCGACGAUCAUGGCAUGUCUUUCUUUUUCUGCCAGAAAAUCUAUUUUAAGAAACCAGAAUAGUCAACAGUGUUCAAAAGAAUUGACUAGUUAUCCCUGAGGCCCUUUCAAACAUGAUCAUGGAAUUCUCGGGUGCCAA,0.602
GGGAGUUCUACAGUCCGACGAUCAAAGAGAAGCAAUAUUGUGCAACUGGUGCAGUGGUGAGUUAAUCAUAGUGUAUAACCUUGUGUUCAUGAAACAGGUUGUUCAUUGUUCUGCAUCUCUCUUCAUUUAAAAAUGGAAUUCUCGGGUGCCAA,0.412
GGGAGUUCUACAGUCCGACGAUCCCGAUCUAGGAUUACUCUGGACCUCAUUCGGGUGUUAUGAGUAUCCCACGAAGGCCAGACGCUGAUUUUAUUUUCUCAUUUCCACAGAUUGACAAGGAUAAGUCAGUUGUUGGAAUUCUCGGGUGCCAA,0.273

# Set 4 — method: protein-binding microarray; form: double-stranded DNA, one strand shown; sample: in vitro; concentration: 2200 nM top; setting: 60-bp whole probe; added: salmon DNA 0.4 mg/ml; relative to: random background probes; reading: higher = stronger binding; constant ends, left off below: GCCTAGCAC … GTCTTGATTCGCTTGACGCTGCTG
# Target: Interferon regulatory factor 7, full length, phosphomimetic (IRF7, Homo sapiens, UniProt Q92985, residues 1-503, S471D/S472D/S475D/S476D/S477D/S483D/S484D/S487D)
# UniProt Q92985, sequence (whole entry, unmodified, looked up): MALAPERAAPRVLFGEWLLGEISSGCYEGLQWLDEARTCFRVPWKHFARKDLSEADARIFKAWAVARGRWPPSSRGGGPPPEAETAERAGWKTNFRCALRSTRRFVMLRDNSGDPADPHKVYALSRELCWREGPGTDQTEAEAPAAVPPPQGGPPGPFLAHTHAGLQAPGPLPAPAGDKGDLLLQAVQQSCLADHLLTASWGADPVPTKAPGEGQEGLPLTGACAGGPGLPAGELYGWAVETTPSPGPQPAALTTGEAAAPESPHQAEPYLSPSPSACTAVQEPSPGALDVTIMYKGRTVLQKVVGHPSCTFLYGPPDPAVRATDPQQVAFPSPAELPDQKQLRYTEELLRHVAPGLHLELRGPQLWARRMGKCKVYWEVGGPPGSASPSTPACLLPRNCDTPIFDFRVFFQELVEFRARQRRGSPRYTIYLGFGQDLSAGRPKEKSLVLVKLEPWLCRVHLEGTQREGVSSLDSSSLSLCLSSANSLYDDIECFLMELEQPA
Oligonucleotide,fitted relative affinity [z-score]
TTGGGTTTCGGACTGGGTTAGTGCTAG,2.72
TCCCCTCCGGGACCCGCCTCGTGCTAG,-0.0931
GACGATCTCAGTTTCAAGACGTGCTAG,0.654
TTAGATTCCAGTTTCGTTTAGTGCTAG,7.37
GACGGTATCCTTTTCCTCACGTGCTAG,1.51
TCATGTTTTCATTTTATACTGTGCTAG,4.37
TTAGCTCTCAGTATCGATTAGTGCTAG,0.481
TTAGGTATCGGTATGGGTTAGTGCTAG,0.704
GACGTTTTCGGTTCCGGGACGTGCTAG,10.4
CTCCCATTATATTTTAATCAGTGCTAG,1.58
CTGACCTTTTCCTGAGGCAGGTGCTAG,0.918
GACGGTTTCGTGTATCGGGACGTGCTA,4.06
TCAGAGCTCTGTCTGGGACTGTGCTAG,-0.42
TTAGGTGTCCTTTCCCTTTAGTGCTAG,2.4
TACGAACTGAGTTTCGAGACGTGCTAG,2.45
TTAGATTTCGGTTATCGATTAGTGCTA,3.93
GACGAACTGGTGTTTCGAGACGTGCTA,1.01
TTAGGTTTAGGGACTGGGTTAGTGCTA,-0.393
GACGGATTGGACTTTCGGGACGTGCTA,2.51

# For quick reference, copied from above (set 1):
Oligonucleotide,E-score
ATTGCACG,0.0258
AAGGGGTC,-0.314
GCCAGGAC,-0.0396
TATAACAA,-0.0855
CAGGCTTA,-0.22
AGGCTATC,-0.0452
